Measured values pooled from the literature.
Each numbered part is a random draw from the data of one study; scales do not carry over between parts.

Set 1 — technique: competition protein-binding microarray; form: double-stranded DNA, one strand shown; matrix: in vitro; tested at: 2 µM; together with: Pho4 competitor, 0.05 µM; reading: higher = stronger binding; all sequences stand within: … GTCTTGATTCGCTTGACGCTGCTG
Target: Centromere-binding protein 1, full length, His-tagged (CBF1, Saccharomyces cerevisiae, UniProt P17106, residues 1-351)
UniProt P17106, sequence (whole entry, looked up): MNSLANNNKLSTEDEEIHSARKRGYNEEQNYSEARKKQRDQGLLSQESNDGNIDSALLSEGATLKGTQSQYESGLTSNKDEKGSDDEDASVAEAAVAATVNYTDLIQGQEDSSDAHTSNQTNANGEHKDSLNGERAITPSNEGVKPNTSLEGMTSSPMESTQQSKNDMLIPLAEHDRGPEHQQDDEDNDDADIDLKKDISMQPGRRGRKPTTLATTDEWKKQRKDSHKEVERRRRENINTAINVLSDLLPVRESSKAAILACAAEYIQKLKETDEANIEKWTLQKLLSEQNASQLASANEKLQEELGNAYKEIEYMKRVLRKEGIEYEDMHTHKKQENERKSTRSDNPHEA
Notes: whole 60-bp probe, lowest competitor level
Strand	fluorescence intensity
ACCTCAGGGTTTGTGTCTGTGATGGGTTACTCAGCC	59.7 a.u.
TGTTATTATTGACAACATGTGTAAGTTGGTCGAAGA	129 a.u.
GCAGCCGCAGCGAGTCACGTGGTCGCGCAAATGATG	11400 a.u.
ATTCTTGGTACTTTAGTCGTGATTGTTTGACATGTC	109 a.u.
GGATACTTGCTTGTTGACGTGCTTTTAGGCATCCTT	70.5 a.u.
CTTCTGTAAATTTGTCTCGTGGGTGGACGCGCCCCG	86.9 a.u.
CTTTCCCGATCTTGTTCCGTGGGTGTAGCACATTTG	68.9 a.u.
ATTTGATATGCCTCTCTCGTGGCCGGCCCATTATAT	92.9 a.u.

Set 2 — technique: RNA Bind-n-Seq; form: RNA; matrix: in vitro; tested at: 200 nM; notes: whole 134-nt RNA, ends assumed; together with: 150 mM LiCl; relative to: input library; reading: higher = stronger binding; each molecule: 7-deaza-guanosine replaces G
Target: Ras GTPase-activating protein-binding protein 1, full length (G3BP1, Homo sapiens, UniProt Q13283)
UniProt Q13283, sequence (whole entry, looked up): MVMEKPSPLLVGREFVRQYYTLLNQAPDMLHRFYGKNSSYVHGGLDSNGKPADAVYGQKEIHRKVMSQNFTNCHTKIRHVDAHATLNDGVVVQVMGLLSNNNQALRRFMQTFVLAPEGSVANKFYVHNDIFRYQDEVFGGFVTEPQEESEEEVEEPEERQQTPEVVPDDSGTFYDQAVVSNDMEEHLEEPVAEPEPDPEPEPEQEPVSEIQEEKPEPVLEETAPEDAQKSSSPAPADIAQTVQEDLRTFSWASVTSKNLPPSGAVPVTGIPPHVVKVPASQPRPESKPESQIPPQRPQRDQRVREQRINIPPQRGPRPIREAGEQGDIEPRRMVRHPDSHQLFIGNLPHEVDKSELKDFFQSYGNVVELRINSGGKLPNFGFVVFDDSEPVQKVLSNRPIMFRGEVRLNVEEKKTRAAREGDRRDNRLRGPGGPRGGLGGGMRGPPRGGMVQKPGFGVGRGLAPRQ
All sequences stand within: GGGAGUUCUACAGUCCGACGAUC … UGGAAUUCUCGGGUGUCAAGG
Strand	log2 enrichment
UGGGAGGUGGAUUUUGUUUAUUUUUUUAGCUCAUUUCCAGGGGUGGGAAUUUUUAUUUAAUAUGUGUCAUGAAUAAAGUUGUUUUUGAAA	-0.363
AAGUCCUGUGCUACACAUCGUAUGUACCGAAUCGGGAAAGGGUGGGUUUUUUUGGGAAAGUAUUAUGUUACGCCGUUCGGAUCUGCACUU	-0.666
UGGCCCUGGUGGCAUGCGGGGAGGAAGGGGUGGCCUCAUGGAUCGUGGUGGUCCCGGUGGAAUGUUCAGAGGUGGCCGUGGUGGAGACAG	0.281
CAAGUCCUGUGCUACACAUCGUAUGUACCGAAUCGGGGAGGGGAGGGGUUUGGGGAAAGUAUUAUGUUACGCCGUUCGGAUCUGCACUUC	0.126
GCAGGAAGUAAAAACAAAUGGAAAUGCUUCGGAUAGUGGCAGGGUUGGGGGUUGCUAAGGAAAGGGUGGGAUGGGAGUGGGUAAAGAGUU	0.232
AAGUCCUGUGCUACACAUCGUAUGUACCGAAUCGGUUUGGUUUUUUUGGUUUUUGGAAAGUAUUAUGUUACGCCGUUCGGAUCUGCACUU	-0.861
CACAGACAAUACGCACCCACACAGACACAGAGGGAAGGGGUUGGGAUGGGGACAGGGUGCACAGCAGGGCGGGGUAGGACCCCAGCCCCU	0.507
CUCAAGUCCUGUGCUACACAUCGUAUGUACCGAAUCGGGAAGGAAGGAAGGGGAAAGUAUUAUGUUACGCCGUUCGGAUCUGCACUUCCA	-0.343

Set 3 — technique: protein binding microarray; form: double-stranded DNA, one strand shown; matrix: in vitro; tested at: not given; relative to: not given; reading: higher = stronger binding
Target: Histone acetyltransferase KAT6A, both winged helices, GST fusion (KAT6A, Homo sapiens, UniProt Q92794, residues 1-181)
Notes: 8-mer, flanks averaged, mean of 2 arrays, mostly near background
Construct (chain): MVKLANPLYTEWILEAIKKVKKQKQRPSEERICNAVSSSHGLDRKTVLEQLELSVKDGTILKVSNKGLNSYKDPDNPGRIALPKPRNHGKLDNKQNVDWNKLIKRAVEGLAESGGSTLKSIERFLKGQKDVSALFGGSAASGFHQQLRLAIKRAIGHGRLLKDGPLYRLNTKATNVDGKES
Strand	E-score
ACGTCTAA	0.00152
AAAATGGA	-0.0719
ATCTAGTC	-0.26
AGCACAAA	-0.0826
GAGTTACA	-0.07
ATACACAC	0.00357
AGCCGCGA	0.303
CTAAGGCC	0.0944
CATATATC	-0.00165
CTGTGACC	-0.0968
AAATTCTC	-0.00451

Further values, each from its own experiment
Molecule	target	assay	test system	conditions	how to read	endpoint	value
PhoQ, residues 284 288 289 292 302 303 SMMNNA	PhoP, residues 12 14 15 18 19 AQCLL (Escherichia coli, UniProt P23836)	Sort-seq, item: YFP reporter	E. coli	PhoQ-PhoP variant library, together with: 10 µM Mg2+	relative to: high Mg2+ state, higher = stronger signaling	fold induction	4.1

Repeated from above (set 3):
Strand	E-score
AAAATGGA	-0.0719
GAGTTACA	-0.07
CATATATC	-0.00165
AGCACAAA	-0.0826
